Measurements collected from several papers.
Parts stem from different laboratories: compare values within a part only.
Sequence of UniProt Q9Y6M4 (whole entry, looked up): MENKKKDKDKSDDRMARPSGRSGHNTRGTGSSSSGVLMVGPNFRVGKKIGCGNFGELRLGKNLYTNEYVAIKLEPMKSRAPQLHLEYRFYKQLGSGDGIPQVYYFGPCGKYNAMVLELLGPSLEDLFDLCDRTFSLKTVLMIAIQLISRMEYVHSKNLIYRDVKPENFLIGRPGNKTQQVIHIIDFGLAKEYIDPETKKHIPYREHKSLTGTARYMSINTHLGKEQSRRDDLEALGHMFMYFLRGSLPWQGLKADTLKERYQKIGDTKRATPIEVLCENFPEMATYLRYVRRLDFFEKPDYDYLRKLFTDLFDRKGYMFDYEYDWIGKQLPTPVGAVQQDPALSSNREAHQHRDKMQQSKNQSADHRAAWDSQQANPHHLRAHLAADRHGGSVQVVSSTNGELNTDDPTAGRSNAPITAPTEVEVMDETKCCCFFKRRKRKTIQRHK
Sequence of UniProt P22455 (whole entry, looked up): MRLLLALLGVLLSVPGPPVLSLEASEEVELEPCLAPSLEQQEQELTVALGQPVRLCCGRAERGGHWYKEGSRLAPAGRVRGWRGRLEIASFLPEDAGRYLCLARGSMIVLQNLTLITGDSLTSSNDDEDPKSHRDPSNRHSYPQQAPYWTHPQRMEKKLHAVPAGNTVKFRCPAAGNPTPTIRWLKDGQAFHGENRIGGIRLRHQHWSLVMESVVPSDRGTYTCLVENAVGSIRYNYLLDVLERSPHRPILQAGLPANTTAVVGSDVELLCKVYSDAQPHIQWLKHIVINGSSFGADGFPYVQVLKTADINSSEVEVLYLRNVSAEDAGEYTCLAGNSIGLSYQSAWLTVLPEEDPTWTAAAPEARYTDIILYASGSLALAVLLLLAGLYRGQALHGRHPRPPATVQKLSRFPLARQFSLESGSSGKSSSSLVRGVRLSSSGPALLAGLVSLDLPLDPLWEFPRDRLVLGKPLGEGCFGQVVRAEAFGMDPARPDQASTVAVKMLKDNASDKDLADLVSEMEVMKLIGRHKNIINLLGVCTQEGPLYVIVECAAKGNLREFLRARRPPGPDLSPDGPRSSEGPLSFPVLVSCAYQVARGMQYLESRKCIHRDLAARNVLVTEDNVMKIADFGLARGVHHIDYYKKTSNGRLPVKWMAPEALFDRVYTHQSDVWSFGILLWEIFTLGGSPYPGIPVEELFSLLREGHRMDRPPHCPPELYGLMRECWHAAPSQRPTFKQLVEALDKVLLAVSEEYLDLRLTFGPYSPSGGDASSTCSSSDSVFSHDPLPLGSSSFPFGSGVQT
Sequence of UniProt O95747 (whole entry, looked up): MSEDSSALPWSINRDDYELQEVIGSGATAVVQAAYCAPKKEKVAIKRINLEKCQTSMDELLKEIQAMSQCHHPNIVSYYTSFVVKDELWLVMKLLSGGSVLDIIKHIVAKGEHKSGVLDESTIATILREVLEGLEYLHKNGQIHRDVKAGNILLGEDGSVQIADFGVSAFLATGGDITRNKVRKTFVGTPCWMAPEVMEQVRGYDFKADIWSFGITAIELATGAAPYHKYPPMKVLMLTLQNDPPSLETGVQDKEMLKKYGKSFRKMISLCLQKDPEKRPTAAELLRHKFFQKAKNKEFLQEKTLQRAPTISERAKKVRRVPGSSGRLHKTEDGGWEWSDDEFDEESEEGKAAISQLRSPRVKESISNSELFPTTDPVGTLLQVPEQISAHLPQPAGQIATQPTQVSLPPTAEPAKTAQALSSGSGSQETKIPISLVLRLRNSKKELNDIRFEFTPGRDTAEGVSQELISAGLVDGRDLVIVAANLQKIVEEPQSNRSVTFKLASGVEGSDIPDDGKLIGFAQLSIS
Sequence of UniProt Q9P0L2 (whole entry, looked up): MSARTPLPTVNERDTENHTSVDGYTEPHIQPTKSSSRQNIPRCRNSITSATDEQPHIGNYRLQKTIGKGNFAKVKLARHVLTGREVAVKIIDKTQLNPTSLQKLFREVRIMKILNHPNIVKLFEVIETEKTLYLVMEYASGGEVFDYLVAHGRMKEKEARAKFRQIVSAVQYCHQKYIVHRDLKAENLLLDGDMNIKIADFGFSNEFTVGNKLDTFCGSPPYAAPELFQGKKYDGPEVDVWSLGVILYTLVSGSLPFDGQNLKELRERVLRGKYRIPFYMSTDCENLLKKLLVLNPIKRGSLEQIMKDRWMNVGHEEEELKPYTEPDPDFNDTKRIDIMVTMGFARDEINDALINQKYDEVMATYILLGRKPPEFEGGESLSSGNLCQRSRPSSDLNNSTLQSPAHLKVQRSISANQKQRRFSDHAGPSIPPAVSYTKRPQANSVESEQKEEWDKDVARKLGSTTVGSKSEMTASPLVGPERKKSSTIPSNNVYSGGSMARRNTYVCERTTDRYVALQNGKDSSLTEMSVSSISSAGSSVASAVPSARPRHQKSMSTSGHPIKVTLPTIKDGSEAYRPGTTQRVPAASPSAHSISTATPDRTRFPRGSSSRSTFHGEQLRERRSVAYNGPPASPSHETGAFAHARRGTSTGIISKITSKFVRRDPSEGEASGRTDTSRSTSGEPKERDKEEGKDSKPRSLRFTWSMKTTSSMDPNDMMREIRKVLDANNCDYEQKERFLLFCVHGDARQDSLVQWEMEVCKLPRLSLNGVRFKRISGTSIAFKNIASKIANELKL
Sequence of UniProt Q13976 (whole entry, looked up): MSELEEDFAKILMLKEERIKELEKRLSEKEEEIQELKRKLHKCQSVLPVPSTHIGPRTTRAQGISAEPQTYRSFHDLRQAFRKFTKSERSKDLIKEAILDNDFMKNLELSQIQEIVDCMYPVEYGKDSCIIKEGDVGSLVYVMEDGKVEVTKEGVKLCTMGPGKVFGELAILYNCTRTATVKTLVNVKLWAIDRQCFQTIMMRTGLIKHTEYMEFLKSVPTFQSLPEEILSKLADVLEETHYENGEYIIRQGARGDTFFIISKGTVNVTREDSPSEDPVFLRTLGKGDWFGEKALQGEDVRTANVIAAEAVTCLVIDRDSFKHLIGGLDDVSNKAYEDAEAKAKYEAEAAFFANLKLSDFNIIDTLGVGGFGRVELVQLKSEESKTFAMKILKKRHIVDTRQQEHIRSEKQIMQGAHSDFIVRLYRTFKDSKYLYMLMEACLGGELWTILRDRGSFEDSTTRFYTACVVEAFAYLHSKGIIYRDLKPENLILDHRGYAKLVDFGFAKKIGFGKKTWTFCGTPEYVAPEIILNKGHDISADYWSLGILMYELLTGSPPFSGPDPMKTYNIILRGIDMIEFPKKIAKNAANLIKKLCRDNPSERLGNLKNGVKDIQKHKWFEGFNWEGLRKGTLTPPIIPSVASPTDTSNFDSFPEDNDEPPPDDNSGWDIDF
Sequence of UniProt P08069 (whole entry, looked up): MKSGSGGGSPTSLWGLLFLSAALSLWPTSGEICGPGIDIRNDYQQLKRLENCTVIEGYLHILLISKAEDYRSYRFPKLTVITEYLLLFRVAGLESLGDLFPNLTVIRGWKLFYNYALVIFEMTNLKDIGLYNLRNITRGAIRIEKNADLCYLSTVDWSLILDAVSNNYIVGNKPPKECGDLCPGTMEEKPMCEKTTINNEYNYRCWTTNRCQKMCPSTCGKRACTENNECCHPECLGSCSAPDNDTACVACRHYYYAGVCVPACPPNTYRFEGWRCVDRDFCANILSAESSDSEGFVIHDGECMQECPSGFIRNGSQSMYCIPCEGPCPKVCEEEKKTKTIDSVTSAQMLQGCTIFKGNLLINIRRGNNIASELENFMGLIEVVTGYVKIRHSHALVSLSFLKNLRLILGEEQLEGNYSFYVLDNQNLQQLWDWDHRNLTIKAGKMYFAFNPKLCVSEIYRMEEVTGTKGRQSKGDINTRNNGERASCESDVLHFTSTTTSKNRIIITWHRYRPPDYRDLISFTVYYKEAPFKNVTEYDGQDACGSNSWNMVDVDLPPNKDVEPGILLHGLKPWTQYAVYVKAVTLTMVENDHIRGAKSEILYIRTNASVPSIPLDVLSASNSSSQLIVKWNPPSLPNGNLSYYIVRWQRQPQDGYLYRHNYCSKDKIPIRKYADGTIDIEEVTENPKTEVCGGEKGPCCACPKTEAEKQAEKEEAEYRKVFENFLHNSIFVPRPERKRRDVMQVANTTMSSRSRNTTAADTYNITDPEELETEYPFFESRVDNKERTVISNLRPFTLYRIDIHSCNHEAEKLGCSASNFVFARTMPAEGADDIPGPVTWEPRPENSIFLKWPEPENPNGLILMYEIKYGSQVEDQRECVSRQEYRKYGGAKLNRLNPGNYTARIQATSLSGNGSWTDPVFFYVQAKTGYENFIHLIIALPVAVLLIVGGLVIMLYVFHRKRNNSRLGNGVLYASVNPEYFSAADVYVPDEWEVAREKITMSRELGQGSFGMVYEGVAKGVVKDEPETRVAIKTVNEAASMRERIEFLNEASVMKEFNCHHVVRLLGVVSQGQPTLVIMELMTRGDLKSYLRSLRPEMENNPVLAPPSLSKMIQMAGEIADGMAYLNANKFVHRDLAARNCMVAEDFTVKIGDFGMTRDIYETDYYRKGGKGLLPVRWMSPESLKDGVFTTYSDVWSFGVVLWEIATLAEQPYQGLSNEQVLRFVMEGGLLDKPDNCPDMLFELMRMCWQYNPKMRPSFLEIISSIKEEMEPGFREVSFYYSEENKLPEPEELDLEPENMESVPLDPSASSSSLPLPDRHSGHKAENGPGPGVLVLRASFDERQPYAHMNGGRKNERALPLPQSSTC

Series 1 — concentration: 5 µM
SMILES: O=C(Nc1cnn(-c2csc(C(=O)NC3COC3)c2)c1)Nc1ccccc1Cl
It gave 101% for remaining activity (CSNK1G3 (Homo sapiens, UniProt Q9Y6M4); enzyme activity; relative to: untreated control).
For FGFR4 (Homo sapiens, UniProt P22455); enzyme activity; relative to: untreated control: remaining activity read 88%.
Cyclin-dependent kinase 16, with cyclin Y (CDK16, Homo sapiens, UniProt Q00536); enzyme activity; relative to: untreated control — remaining activity: 93.2%.
For CSNK1G1 (Homo sapiens, UniProt Q9HCP0); enzyme activity; relative to: untreated control: remaining activity read 95.5%.
OXSR1 (Homo sapiens, UniProt O95747); enzyme activity; relative to: untreated control — remaining activity: 92.4%.
The remaining activity was 94% (CAMK1G (Homo sapiens, UniProt Q96NX5); enzyme activity; relative to: untreated control).
For DAPK2 (Homo sapiens, UniProt Q9UIK4); enzyme activity; relative to: untreated control: remaining activity read 102%.
It gave 94.9% for remaining activity (IGF1R (Homo sapiens, UniProt P08069); enzyme activity; relative to: untreated control).
For cGMP-dependent protein kinase 1, isoform beta (PRKG1, Homo sapiens, UniProt Q13976); kinase activity, kinase panel profiling: remaining activity read 87.5%.
It gave 93.7% for remaining activity (MARK1 (Homo sapiens, UniProt Q9P0L2); enzyme activity; relative to: untreated control).

Series 2 — species: mouse; sample: microsomes or S9; concentration: 2 µM; time: 0.5 h
The remaining compound of `Cn1nc(C(=O)NCCn2ccc(-c3ccsc3)n2)ccc1=O` is reported as 10.3%.
The remaining compound of `Cc1cc(NCc2cn[nH]c2-c2ccccc2)ccc1Br` is reported as 12.1%.
With `O=c1ccc(-c2noc(Cc3c(F)cccc3Cl)n2)c[nH]1` the remaining compound was 0.13%.
`Cc1ccc(-c2nnc(C(C)N3CCc4sccc4C3)o2)cc1` (centres unmarked) gave a remaining compound of 0.241%.
The remaining compound of `CC(C)Oc1cccc(/C=C(/F)Oc2ccc(OC[C@@H]3C[C@@](Cn4cncn4)(c4ccc(Cl)cc4Cl)N(C)O3)cc2)c1` is reported as 0%.
`CCOC(=O)C1SC2(C(F)(F)F)CC1(O)C(C)(C)CO2` (centres unmarked) has a remaining compound of over 99%.
With `CCN1CCN(c2nc(-c3ccc(C)cc3)cc3cc(C)ccc23)CC1` the remaining compound was 1.43%.
The remaining compound of `Cc1cc(C(F)(F)F)nc(OCCCC#N)c1C(=O)C1C(=O)C2CCC(C2)C1=O` (centres unmarked) is reported as 85.4%.

Series 3 — cell line: sample D normal colon organoid; method: CellTiter-Glo; concentration: 1 µM; notes: mean of replicates; relative to: DMSO
`CO[C@@H](C)c1c(Nc2ccc([C@H](N(C)C(=O)C3CCS(=O)(=O)CC3)C(F)(F)F)cc2)cnc2cc(Cl)nn12` gave a viability of 83.7%.
For `CC(=O)C1=C(C)N(c2cccc(C(F)(F)F)c2)C(=O)N[C@@H]1c1ccc(C#N)nc1`, the viability was 112%.
With `CC(=O)Nc1c(C(C)=O)c(=O)n(C)c2nc(-c3ccc(Cl)cc3Cl)c(-c3ccc(Cl)cc3)cc12` the viability was 114%.
`Cn1cc(Cl)c2c(Oc3c(F)cc(Nc4cc(Cl)nc(N)n4)cc3F)ccnc21` has a viability of 101%.
For `CN(C)c1ncnc(-c2ccc3nc(Nc4cc(CN5CCN(C(=O)CC(F)(F)F)CC5)ccn4)[nH]c3c2)c1Cl`, the viability was 84.9%.
`O=C(NS(=O)(=O)c1ccc(NCC2CCOCC2)c([N+](=O)[O-])c1)c1ccc(N2CCN(Cc3ccc(C(F)(F)F)cc3-c3ccc(Cl)cc3)CC2)cc1Oc1cnc2[nH]ccc2c1` gave a viability of 84.1%.

Series 4 — effect on: enzyme activity; action: inhibitor; concentration: 0.5 µM; relative to: control
Target: Serine/threonine-protein kinase 17A (STK17A, Homo sapiens, UniProt Q9UEE5)
Sequence of UniProt Q9UEE5 (whole entry, looked up): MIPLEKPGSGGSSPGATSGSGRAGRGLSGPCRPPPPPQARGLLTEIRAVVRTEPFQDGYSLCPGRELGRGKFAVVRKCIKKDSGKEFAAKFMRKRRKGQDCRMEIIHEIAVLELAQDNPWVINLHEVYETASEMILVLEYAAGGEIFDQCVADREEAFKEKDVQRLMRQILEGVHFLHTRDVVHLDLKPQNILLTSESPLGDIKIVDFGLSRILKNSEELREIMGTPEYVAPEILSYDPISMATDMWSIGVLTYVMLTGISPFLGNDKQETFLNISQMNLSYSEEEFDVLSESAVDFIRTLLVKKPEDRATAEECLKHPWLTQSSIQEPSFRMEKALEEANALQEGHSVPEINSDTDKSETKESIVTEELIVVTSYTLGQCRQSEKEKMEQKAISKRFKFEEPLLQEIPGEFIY
With `O=S(=O)(c1cccc2cnccc12)N1CCCNCC1` the remaining activity was 98.2%.
`O=C(CCCc1ccc(-c2ccccc2F)cc1)Nc1ccc(O)cc1` has a remaining activity of 101%.
The remaining activity of `CCOC(=O)c1c(C)[nH]c(/C=C2\C(=O)Nc3ccccc32)c1C` is reported as 81.4%.
`COc1cc2ncnc(Nc3ccc(Oc4ccccc4)cc3)c2cc1OC` has a remaining activity of 96.3%.
For `O=C1NC(=O)C(c2cn(CCCO)c3ncccc23)=C1c1cnccn1`, the remaining activity was 93.6%.
For `O=C(O)c1ccc2c3c1cccc3c(=O)n1c3ccccc3nc21`, the remaining activity was 73.4%.
`COc1ccc(OC)c2c(=S)c3ccccc3[nH]c12` gave a remaining activity of 90.3%.
The remaining activity of `Nc1[nH]nc2nc3ccccc3nc12` is reported as 95.2%.
`COc1cc2nccc(Oc3ccc(NC(=S)NC(=O)c4ccccc4C)cc3)c2cc1OC` has a remaining activity of 82.3%.
`Cn1sc(=O)n(Cc2ccccc2)c1=O` has a remaining activity of 101%.
`Nc1ncnc2n[nH]c(Nc3ccc(F)cc3)c12` has a remaining activity of 88.1%.
`NCCNc1ncc(C(N)=O)c(Nc2cccc(C(F)(F)F)c2)n1` gave a remaining activity of 114%.
With `CO[C@H]1C[C@@H]2CC[C@@H](C)[C@@](O)(O2)C(=O)C(=O)N2CCCC[C@H]2C(=O)O[C@H]([C@H](C)C[C@@H]2CC[C@@H](O)[C@H](OC)C2)CC(=O)[C@H](C)/C=C(\C)[C@@H](O)[C@@H](OC)C(=O)[C@H](C)C[C@H](C)/C=C/C=C/C=C/1C` the remaining activity was 95.9%.
`CN(C)c1ccc(C=C2C(=O)Nc3ccccc32)cc1` has a remaining activity of 93.8%.
